Literature values, collected from citations in different studies.
Protocols differ between the studies behind these lines. ≈ marks a conversion by molar mass, not a printed value.

Compound	organism	assay	test system	setting	how to read	endpoint	result
CNS(=O)(=O)c1sc(N(C)C(=O)Cc2ccc(-c3ccccc3)cc2)nc1C	herpes simplex virus 2	viral replication				EC50	0.05 µM
O=C(Nc1ccccc1-c1ccc(F)cc1)c1nccnc1C(F)(F)F	Botrytis cinerea		cucumber			EC80	2 to 10 mg a.i./L
C/C=C/CNC(=N)NCCCCCCCCN1CCCCCCCCNC(=N)NC1=O	Candida albicans					MIC50	2.5 mg/L (≈ 5.74 µM)
CCCCCCCCCCCCCCCCOCCOP1(=O)COC(Cn2cnc(N)nc2=O)CO1 (stereo not shown)	varicella zoster virus				baseline: cytotoxicity over antiviral activity	selectivity index	≥ 5800
Cc1nc(N(C)C(=O)Cc2ccc(-c3ccccn3)cc2)sc1S(N)(=O)=O	herpes simplex virus 2	viral replication				EC50	0.016 µM
O=C(Nc1ccccc1-c1ccc(Cl)c(F)c1)c1nccnc1C(F)(F)F	Blumeria graminis		barley			EC80	0.5 to 2 mg a.i./L
O=c1c(O)ccccc1O	Cryptococcus neoformans					MIC80	24 µM (≈ 3.31 µg/mL)
CN(C(=O)Nc1ccc(N2CCOCC2)cc1)c1nc(Cl)c(S(=O)(=O)N(C)C)s1	herpes simplex virus 1	viral replication				EC50	0.5 µM
C[C@@](CCc1ccc(-c2ccccc2)cc1)(C(=O)NO)S(C)(=O)=O	Pseudomonas aeruginosa			138 clinical isolates		MIC90	4 mg/L (≈ 11.5 µM)
O=C(Nc1ccccc1-c1cc(F)cc(F)c1)c1nccnc1C(F)(F)F	Puccinia triticina		wheat			EC80	2 to 10 mg a.i./L
COC1=CC(c2ccc[nH]2)=NC1=Cc1[nH]c(Cc2ccc(Cl)cc2)cc1Cc1ccc(Cl)cc1	Plasmodium yoelii		multidrug-resistant, mouse	5 mg/kg/day		parasite reduction	92%
CSc1nn(CC(=O)Nc2ccc(F)c(F)c2)c(N)c1-c1nc(-c2ccc3c(c2)OCO3)no1	Klebsiella pneumoniae	PubChem screen		concentration not given		activity	inactive
CN[C@H](CC(C)C)C(=O)N[C@H]1C(=O)N[C@@H](CC(N)=O)C(=O)N[C@H]2C(=O)N[C@H]3C(=O)N[C@H](C(=O)N[C@H](C(=O)NCCCNC(=N)N)c4cc(O)cc(O)c4-c4cc3ccc4O)[C@H](O)c3ccc(c(Cl)c3)Oc3cc2cc(c3O[C@@H]2O[C@H](CO)[C@@H](O)[C@H](O)[C@H]2O[C@H]2C[C@](C)(N)[C@H](O)[C@H](C)O2)Oc2ccc(cc2Cl)[C@H]1O	Enterococcus		VanA vancomycin-resistant	concentration not given	baseline: vancomycin	activity improvement	≤ 64 fold
COc1cc([C@@H]2c3cc4c(cc3[C@@H](C=C(C)C)[C@H]3COC(=O)[C@@H]23)OCO4)cc(OC)c1OC	Leishmania infantum	tubulin polymerization inhibition		concentration not given		antiparasitic activity	active
Cc1ncccc1C(=O)Nc1cccc2c1C(C)CC2(C)C (stereo not shown)	Botrytis cinerea		cucumber			EC80	20 to 100 mg a.i./L
N=C(N)NCCC[C@H](NC(=O)[C@H](Cc1c[nH]c2ccccc12)NC(=O)[C@H](CCC(N)=O)NC(=O)[C@H](Cc1c[nH]c2ccccc12)NC(=O)[C@H](CCCNC(=N)N)NC(=O)[C@@H](N)CCCNC(=N)N)C(=O)NCCCC[C@H](NC(=O)[C@H](CCCNC(=N)N)NC(=O)[C@H](Cc1c[nH]c2ccccc12)NC(=O)[C@H](CCC(N)=O)NC(=O)[C@H](Cc1c[nH]c2ccccc12)NC(=O)[C@H](CCCNC(=N)N)NC(=O)[C@@H](N)CCCNC(=N)N)C(=O)NCCCCCC(=O)N[C@@H](CSSC[C@H](NC(=O)CCCCCNC(=O)[C@H](CCCCNC(=O)[C@H](CCCNC(=N)N)NC(=O)[C@H](Cc1c[nH]c2ccccc12)NC(=O)[C@H](CCC(N)=O)NC(=O)[C@H](Cc1c[nH]c2ccccc12)NC(=O)[C@H](CCCNC(=N)N)NC(=O)[C@@H](N)CCCNC(=N)N)NC(=O)[C@H](CCCNC(=N)N)NC(=O)[C@H](Cc1c[nH]c2ccccc12)NC(=O)[C@H](CCC(N)=O)NC(=O)[C@H](Cc1c[nH]c2ccccc12)NC(=O)[C@H](CCCNC(=N)N)NC(=O)[C@@H](N)CCCNC(=N)N)C(N)=O)C(N)=O	Escherichia coli		ATCC 25922			MBC	22 µM (≈ 101 µg/mL)
CC1CC(C)(C)c2cccc(NC(=O)c3nccnc3C(F)(F)F)c21 (stereo not shown)	Blumeria graminis		barley			EC80	1 to 10 mg a.i./L
CSCC[C@H](NC(=O)[C@H](CCCNC(=N)N)NC(=O)[C@H](Cc1c[nH]c2ccccc12)NC(=O)[C@H](CCC(N)=O)NC(=O)[C@H](Cc1c[nH]c2ccccc12)NC(=O)[C@H](CCCNC(=N)N)NC(=O)[C@@H](N)CCCNC(=N)N)C(=O)N[C@@H](CCCCN)C(=O)N[C@@H](CCCCN)C(=O)N[C@@H](CC(C)C)C(=O)NCC(=O)NCCCC[C@H](NC(=O)CNC(=O)[C@H](CC(C)C)NC(=O)[C@H](CCCCN)NC(=O)[C@H](CCCCN)NC(=O)[C@H](CCSC)NC(=O)[C@H](CCCNC(=N)N)NC(=O)[C@H](Cc1c[nH]c2ccccc12)NC(=O)[C@H](CCC(N)=O)NC(=O)[C@H](Cc1c[nH]c2ccccc12)NC(=O)[C@H](CCCNC(=N)N)NC(=O)[C@@H](N)CCCNC(=N)N)C(=O)NCCCCCC(=O)N[C@@H](CSSC[C@H](NC(=O)CCCCCNC(=O)[C@H](CCCCNC(=O)CNC(=O)[C@H](CC(C)C)NC(=O)[C@H](CCCCN)NC(=O)[C@H](CCCCN)NC(=O)[C@H](CCSC)NC(=O)[C@H](CCCNC(=N)N)NC(=O)[C@H](Cc1c[nH]c2ccccc12)NC(=O)[C@H](CCC(N)=O)NC(=O)[C@H](Cc1c[nH]c2ccccc12)NC(=O)[C@H](CCCNC(=N)N)NC(=O)[C@@H](N)CCCNC(=N)N)NC(=O)CNC(=O)[C@H](CC(C)C)NC(=O)[C@H](CCCCN)NC(=O)[C@H](CCCCN)NC(=O)[C@H](CCSC)NC(=O)[C@H](CCCNC(=N)N)NC(=O)[C@H](Cc1c[nH]c2ccccc12)NC(=O)[C@H](CCC(N)=O)NC(=O)[C@H](Cc1c[nH]c2ccccc12)NC(=O)[C@H](CCCNC(=N)N)NC(=O)[C@@H](N)CCCNC(=N)N)C(N)=O)C(N)=O	Escherichia coli		ATCC 11775			MBC	15 µM (≈ 102 µg/mL)
O=C(Nc1ccccc1-c1cccc(F)c1)c1nccnc1C(F)(F)F	Blumeria graminis		barley			EC80	2 to 10 mg a.i./L
CN1C[C@H](c2cccc(C(F)(F)F)c2)[C@@H](C(=O)Nc2ccccc2F)C1=O	Aspergillus	antifungal activity		concentration not given		activity	inactive
CCOP(=O)(CCCn1cc(Cn2c(=O)n(C(=O)c3ccccc3)c(=O)c3ccccc32)nn1)OCC	human alphaherpesvirus 1	viral replication				EC50	17 µM
O=C(Nc1ccccc1-c1ccc(F)cc1F)c1nccnc1C(F)(F)F	Botrytis cinerea		cucumber			EC80	2 to 10 mg a.i./L
C[C@@](CCn1ccc(-c2ccccc2)cc1=O)(C(=O)NO)S(C)(=O)=O	Pseudomonas aeruginosa			138 clinical isolates		MIC90	2 mg/L (≈ 5.49 µM)
Cc1cccc(C)c1NC1=C(O)C(=O)c2ccccc2C1=O	Plasmodium berghei		infected mice	dose not given, day 7	baseline: untreated	parasitemia inhibition	0%
NCCn1c2ccc([N+](=O)[O-])cc2c(=O)n1Cc1ccccc1	Trypanosoma cruzi			concentration not given, epimastigotes		antiparasitic activity	active
Cc1ccc(C(=O)Sc2cccccc2=O)cc1	Cryptococcus neoformans					MIC80	0.25 µM (≈ 0.0641 µg/mL)
O=C(Nc1ccccc1-c1ccc(C(F)(F)F)c(F)c1)c1nccnc1C(F)(F)F	Botrytis cinerea		cucumber			EC80	5 to 20 mg a.i./L
Cc1ccc(/N=N/c2c(C)c(C(=O)Nc3ccccc3)c(N)n(-c3ccccc3)c2=O)cc1	Salmonella typhimurium					MIC	1.9 mg/L (≈ 4.34 µM)

A few entries again:
Compound	organism	assay	test system	setting	how to read	endpoint	result
CCOP(=O)(CCCn1cc(Cn2c(=O)n(C(=O)c3ccccc3)c(=O)c3ccccc32)nn1)OCC	human alphaherpesvirus 1	viral replication				EC50	17 µM
O=C(Nc1ccccc1-c1ccc(F)cc1F)c1nccnc1C(F)(F)F	Botrytis cinerea		cucumber			EC80	2 to 10 mg a.i./L
C[C@@](CCn1ccc(-c2ccccc2)cc1=O)(C(=O)NO)S(C)(=O)=O	Pseudomonas aeruginosa			138 clinical isolates		MIC90	2 mg/L (≈ 5.49 µM)
Cc1cccc(C)c1NC1=C(O)C(=O)c2ccccc2C1=O	Plasmodium berghei		infected mice	dose not given, day 7	baseline: untreated	parasitemia inhibition	0%
